Assay results gathered from unrelated publications.
Each numbered part is a random draw from the data of one study; scales do not carry over between parts.

Block 1
Cell line: HEK-293T
Organism: VSV pseudotyped with SARS-CoV-2 spike
Concentration: 10 µM
Time: 16 h
| SMILES | pseudovirus infection |
| --- | --- |
| OCCOc1ccc(/C(=C(/CCCl)c2ccccc2)c2ccccc2)cc1 | 79.3% |
| CN1CCN(C2=Nc3cc(Cl)ccc3Nc3ccccc32)CC1 | 52.3% |
| Nc1ccc(S(N)(=O)=O)cc1 | 96.4% |
| Nc1nc(=O)n([C@@H]2CS[C@H](CO)O2)cc1F | 76.8% |
| CC(=O)Nc1nnc(S(N)(=O)=O)s1 | 92.8% |

Block 2
Target: Sal-like protein 4, full length isoform B (SALL4, Homo sapiens, UniProt Q9UJQ4-2, residues 1-616)
Technique: universal PBM
Form: double-stranded DNA, one strand shown
Matrix: in vitro
Concentration: not given
Setting: 8-mer, flanks averaged, mean of replicates
Reading: higher = stronger binding
Target sequence (chain): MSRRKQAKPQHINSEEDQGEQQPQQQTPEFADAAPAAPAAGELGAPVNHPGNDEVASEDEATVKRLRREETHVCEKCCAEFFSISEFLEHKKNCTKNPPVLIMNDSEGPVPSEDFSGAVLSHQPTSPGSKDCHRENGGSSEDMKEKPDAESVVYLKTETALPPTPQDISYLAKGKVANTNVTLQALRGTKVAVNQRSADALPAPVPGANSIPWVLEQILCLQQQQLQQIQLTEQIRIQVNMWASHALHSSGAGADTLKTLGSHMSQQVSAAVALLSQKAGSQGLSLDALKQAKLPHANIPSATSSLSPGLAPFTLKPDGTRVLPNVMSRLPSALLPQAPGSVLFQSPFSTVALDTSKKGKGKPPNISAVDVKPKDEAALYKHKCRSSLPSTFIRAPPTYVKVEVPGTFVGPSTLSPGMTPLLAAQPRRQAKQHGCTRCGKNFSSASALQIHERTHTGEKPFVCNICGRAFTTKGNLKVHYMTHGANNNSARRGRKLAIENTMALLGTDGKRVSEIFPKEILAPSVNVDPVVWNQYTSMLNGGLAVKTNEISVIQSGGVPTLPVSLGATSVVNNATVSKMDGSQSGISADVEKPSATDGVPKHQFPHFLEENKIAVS
| Oligonucleotide | E-score |
| --- | --- |
| CCAATAGC | -0.115 |
| CCCGACCA | -0.234 |
| AACACTTC | 0.0133 |
| CCTACATC | 0.00457 |
| CCAACACG | -0.0193 |
| AAGGGTTA | 0.105 |
| AAAGTCGA | -0.0709 |
| GATTTCAC | 0.161 |

Block 3
Target: Phosphate system positive regulatory protein PHO4, full length, GST-tagged (PHO4, Saccharomyces cerevisiae, UniProt P07270, residues 1-312)
Technique: competition protein-binding microarray
Form: double-stranded DNA, one strand shown
Matrix: in vitro
Concentration: 2 µM
Setting: whole 60-bp probe, lowest competitor level
Added: Cbf1 competitor, 0.05 µM
Reading: higher = stronger binding
Shared flanks, not repeated: … GTCTTGATTCGCTTGACGCTGCTG
Residues (chain): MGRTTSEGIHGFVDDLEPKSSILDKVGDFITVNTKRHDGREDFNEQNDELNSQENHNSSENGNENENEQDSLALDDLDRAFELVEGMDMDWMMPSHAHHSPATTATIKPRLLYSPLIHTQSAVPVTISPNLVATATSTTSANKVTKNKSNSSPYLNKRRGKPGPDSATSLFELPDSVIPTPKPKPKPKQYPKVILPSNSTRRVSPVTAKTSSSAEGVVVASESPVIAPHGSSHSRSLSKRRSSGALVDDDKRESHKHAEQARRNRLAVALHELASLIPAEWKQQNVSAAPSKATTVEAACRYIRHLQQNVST
| Oligonucleotide | fluorescence intensity [a.u.] |
| --- | --- |
| CGGGGTTAAGTTTGCAGAGTGGGTGGCTTGCAGCAG | 4340 |
| CTAACGAAGGTTTGTCACTATACTTACAAGCCAAGT | 3100 |
| CTTCTGTAAATTTGACCTGTGGGTGGACGCGCCCCG | 4340 |
| CTGTTCTCTGTAATGCATGTGGCCTCTTCCTGAAGT | 12100 |
| GTCGCAGTGTCGTCGTACGTGATGGGGGCAGGCTTG | 4440 |
| TTATCACCGTAATGGCCCAGATTAATGGCGATCCTT | 2730 |
| CGCGCTGCCGGCCAAGACGTGATGGTGGTTGTCGAC | 4260 |
| CTAACGAAGGTTTCGCACGTGTTTTACAAGCCAAGT | 18700 |

Block 4
Target: Histone acetyltransferase KAT6A, winged helix 2, GST fusion (KAT6A, Homo sapiens, UniProt Q92794, residues 85-181)
Technique: protein binding microarray
Form: double-stranded DNA, one strand shown
Matrix: in vitro
Concentration: not given
Setting: 8-mer, flanks averaged, mean of 2 arrays, mostly near background
Reference: not given
Reading: higher = stronger binding
Construct (chain): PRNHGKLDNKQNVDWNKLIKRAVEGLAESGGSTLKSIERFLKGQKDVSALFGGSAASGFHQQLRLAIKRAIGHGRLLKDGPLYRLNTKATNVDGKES
| Oligonucleotide | E-score |
| --- | --- |
| GTACGAAC | 0.15 |
| GGGCGGAC | 0.097 |
| AACTATCG | -0.138 |
| CCAAGCGA | 0.0763 |
| ATGTTTCC | -0.0207 |
| GAAGATGA | 0.0102 |
| GAACCTGC | 0.212 |
| ACTCCATC | 0.0438 |

Block 5
Target: Replicase polyprotein 1ab, main protease (rep, Severe acute respiratory syndrome coronavirus 2, UniProt P0DTD1)
Read-out: enzyme activity
Action: inhibitor
Concentration: 20 µM
Setting: hit confirmation
| SMILES | inhibition [%] |
| --- | --- |
| O=C(O)c1ccc(N2C(=O)/C(=C/c3ccc(-c4ccc([N+](=O)[O-])cc4)o3)C=C2c2ccccc2)cc1 | 51.1 |
| COc1ccc2[nH]c([S+]([O-])Cc3ncc(C)c(OC)c3C)nc2n1 (stereo not drawn) | 90.2 |
| NCc1ccccc1CC(=O)N[C@@H]1C(=O)N2C(C(=O)O)=C(CSc3nnnn3CC(=O)O)CS[C@H]12 | 40.6 |

Block 6
Target: Replicase polyprotein 1ab, polymerase (rep, Severe acute respiratory syndrome coronavirus 2, UniProt P0DTD1)
Read-out: enzyme activity
Action: inhibitor
Concentration: 20 µM
| Structure (SMILES) | inhibition |
| --- | --- |
| Clc1ccccc1C(c1ccccc1)(c1ccccc1)n1cccn1 | -6.78% |
| COc1ccc2[nH]c(I)c(CCNC(C)=O)c2c1 | -14% |
| CCCCC(F)(F)[C@@]1(O)CC[C@H]2[C@@H](CC(=O)[C@@H]2CCCCCCC(=O)O)O1 | -7.78% |
| CCCCCCCCCCCCCCOC(=O)c1cccnc1 | 0.28% |
| COC(=O)c1ccc2c(c1)NC(=O)/C2=C(\Nc1ccc(N(C)C(=O)CN2CCN(C)CC2)cc1)c1ccccc1 | -5.49% |
| C[C@H](Nc1cc(-c2cnn(C)c2)cc(Nc2cnccn2)n1)c1ccc(F)cc1 | -7.55% |
| O=C1c2ccc(Nc3ccc(F)cc3F)cc2CCc2ccc(OC[C@H](O)CO)cc21 | 10% |
| COCCN1CCC(C(=O)NO)(S(=O)(=O)c2ccc(Oc3ccc(OC(F)(F)F)cc3)cc2)CC1 | -21.5% |
| C[C@@H]1C[C@H]2[C@@H]3C[C@H](F)C4=CC(=O)C=C[C@]4(C)[C@@]3(F)[C@@H](O)C[C@]2(C)[C@@]1(O)C(=O)COC(=O)C(C)(C)C | 19.7% |
| O=C(Nc1nc2ccc(NC(=O)C34C[C@H]5C[C@@H](C3)C[C@@H](C4)C5)cc2s1)c1ccccc1 | 7.4% |
| COc1cc2ncnc(Oc3cccc(NC(=O)Nc4cc(C(C)(C)C(F)(F)F)on4)c3)c2cc1OC | -1.1% |
| COc1ncc2cc(C(=O)Nc3cc(C(=O)NCc4cccc(Cl)c4)ccc3Cl)c(=O)[nH]c2n1 | 2.19% |
| CCCCCCCCCCCC1=C(O)C(=O)C=C(O)C1=O | 8.45% |
| CN1C(CSCC(F)(F)F)Nc2cc(Cl)c(S(N)(=O)=O)cc2S1(=O)=O (stereo not drawn) | -6.29% |
| Cc1c(-c2ccc(-c3ccccc3F)cc2)nc2ccc(F)cc2c1C(=O)O | -7.1% |
| COc1cc2c(cc1OC)CN(CCc1ccc(NC(=O)c3cccc4c(=O)c5cccc(OC)c5[nH]c34)cc1)CC2 | 93% |
| NCCC(Oc1ccc(C(F)(F)F)cc1)c1ccccc1 (stereo not drawn) | -4.5% |
| CC1=C(C)C(=O)C(C(CCCCCC(=O)O)c2ccccc2)=C(C)C1=O (stereo not drawn) | -4.46% |
| CC(=O)Nc1cccc(Nc2ncnc(N3CCC(OCc4ccc(OC(F)(F)F)cc4)CC3)n2)c1C | -6.91% |
| COc1ccc(CNC(=O)c2sc3nc(C)cc(C)c3c2N)cc1 | 8.65% |
| CCCCCCOC(=O)NC(=N)c1ccc(NCc2nc3cc(C(=O)N(CCC(=O)OCC)c4ccccn4)ccc3n2C)cc1 | -2.74% |
| Cc1cccc(CC(=O)N2CCc3c2ccc(-c2cn(C)c4ncnc(N)c24)c3F)n1 | -3.41% |
| COc1nc(C)cnc1NS(=O)(=O)c1cccnc1-c1ccc(-c2nnco2)cc1 | -1.88% |
| Cc1ccnc2c1CCCC2C(N)=S (stereo not drawn) | -0.13% |
| CC(=O)Nc1ccc(C(=O)Nc2ccccc2N)cc1 | 0.42% |

Repeated from above (block 2):
| Oligonucleotide | E-score |
| --- | --- |
| AAAGTCGA | -0.0709 |
| AACACTTC | 0.0133 |
| CCCGACCA | -0.234 |
